Experimental data gathered from unrelated publications.
Each line is one published result; not all experiments were run side by side. ± gives the spread as reported.

For `CC[C@H](C)[C@H](NC(=O)[C@@H](NC(=O)[C@H](CC(=O)O)NC(C)=O)[C@@H](C)O)C(=O)N[C@@H](CCCNC(=N)N)C(=O)N[C@@H](CC(C)C)C(=O)N[C@@H](CC(C)C)C(=O)N[C@@H](Cc1ccccc1)C(=O)N[C@@H](CCC(N)=O)C(=O)N[C@@H](CC(C)C)C(=O)N[C@@H](CCSC)C(=O)N[C@@H](CCCNC(=N)N)C(=O)N1CCC[C@H]1C(=O)N1CCC[C@H]1C(=O)N[C@@H](CC(N)=O)C(=O)N[C@@H](CCSC)C(=O)N[C@H](C(=O)N1CCC[C@H]1C(=O)N[C@@H](C)C(=O)N[C@H](C(=O)N[C@@H](CC(N)=O)C(=O)N[C@@H](C)C(N)=O)C(C)C)[C@@H](C)O`, “α4β7+ CCR9− cells” read 28% (measured: HA-19 tetramer; antigen-experienced tetramer+ CD4 T cells, healthy adults, HLA-DRB1*0101; dose not given).
`CCc1cnc(NC(=O)c2cc(S(=O)(=O)N3CCOCC3)ccc2N(C)C2CCCC2)s1` gave a progression-free survival of 60% (mouse, H1975-OR xenograft; intraperitoneal, 10 mg/kg every other day, 90 days).
Under “action potential number”, `CCN(Cc1ccccc1)C(=O)CCc1nc(CN2CCN(C(=O)Cc3ccc(OC)c(OC)c3)CC2)no1` is recorded as 0.3 ± 0.17 (current clamp; L4-L6 DRG neurons, rat CCI model; 3 µM, together with: 500 pA current injection).
`COc1ccc2c(c1)/C(=N\Nc1nnc3n1N=C(c1ccc(Cl)cc1)CS3)C(=O)N2`: “number of blood vessels” “decreased” (angiogenesis; hen egg chorioallantoic membrane; 40 µM; relative to: DMSO vehicle).
`Cn1cc(-c2cccc(CN3CCC4(CC3)COc3c4ccc4c3CN([C@H]3CCC(=O)NC3=O)C4=O)c2)cn1` — result for “tumour growth inhibition”: 68% (Crbn I391V mice, MC-38 tumour; oral, 30 mg/kg once daily, day 22).
For `CCCCCCCC/C=C\CCCCCCCCOP(O)(O)=S.N`, the survival increase was 33% (C57BL/6 mouse; subcutaneous, 1 mg/kg single, day 30, dosed 48 or 72 h after irradiation, together with: 6.4 Gy total-body irradiation).
For `O=C(N[C@@H](Cc1coc2ccccc12)B(O)O)[C@@H]1C[C@H]2CC[C@@H]1O2`, “median survival prolongation” read 13 days (mouse, disseminated MM1.S model; oral, 10 mg/kg, 5 consecutive days weekly; relative to: vehicle).
For `O=C(O)CCCC(=O)O`, the inhibition was 64.2 ± 0.94% (DPPH radical scavenging; 250 µg/mL).
Under “α4β7+ CCR9+ cells”, `CC[C@H](C)[C@H](NC(=O)[C@H](Cc1c[nH]c2ccccc12)NC(=O)[C@H](CCCNC(=N)N)NC(=O)[C@H](CCCCN)NC(=O)[C@H](CC(C)C)NC(=O)[C@H](CC(=O)O)NC(=O)[C@H](Cc1ccccc1)NC(=O)[C@H](C)NC(=O)[C@H](Cc1ccc(O)cc1)NC(=O)[C@H](CC(N)=O)NC(=O)[C@H](Cc1ccc(O)cc1)NC(=O)[C@H](CCCNC(=N)N)NC(=O)[C@H](Cc1ccc(O)cc1)NC(=O)[C@H](Cc1ccc(O)cc1)NC(=O)[C@@H](NC(=O)[C@H](CC(C)C)NC(=O)[C@H](C)NC(=O)[C@H](CC(N)=O)NC(=O)[C@H](Cc1ccc(O)cc1)NC(C)=O)[C@@H](C)CC)C(=O)N[C@@H](Cc1ccc(O)cc1)C(=O)N[C@@H](CC(C)C)C(N)=O` is recorded as 12.5% (measured: HA-51 tetramer; antigen-experienced tetramer+ CD4 T cells, healthy adults, HLA-DRB1*0101; dose not given).
The ED50 of `CC[C@H](C)[C@H](N)C(=O)N[C@@H](CO)C(=O)N[C@@H](Cc1ccc(O)cc1)C(=O)NCC(=O)NCC(=O)N[C@@H](C)C(=O)N[C@@H](CC(=O)O)C(=O)N[C@@H](Cc1ccc(O)cc1)C(=O)N[C@@H](CCCCN)C(=O)O` is reported as 3.38 nmol (acetic acid writhing; wild-type mice; intrathecal, 20 min, together with: acetic acid 1% i.p.).
For `Cc1ccc(/C=C/C(=O)O)cc1-c1cc2c(cc1C)C(C)(C)CCC2(C)C`, “log2 fold change” read 0.5 (RNA sequencing, measured: Ifit3 mRNA; rat, brain; dose not given, 24 h, single dose; relative to: vehicle).
Under “decrease in phosphorylation”, `CCOP(=O)(OCC)OCCCCOC(=O)CC1=C(C)C(=Cc2ccc([S+](C)[O-])cc2)c2ccc(F)cc21` (stereo not shown) is recorded as 55% (measured: phospho-MEK; nude mice, orthotopic A549 tumour, tumour; inhalation, dose not given; relative to: vehicle).
`CC[C@H](C)[C@H](NC(=O)[C@H](Cc1c[nH]c2ccccc12)NC(=O)[C@H](CCCCN)NC(=O)[C@@H](NC(=O)[C@H](CC(C)C)NC(=O)[C@H](CC(=O)O)NC(=O)CNC(=O)[C@@H](NC(=O)[C@@H](NC(=O)[C@H](CO)NC(=O)[C@@H](NC(=O)[C@@H](NC(=O)[C@H](CC(=O)O)NC(=O)[C@H](CCC(N)=O)NC(=O)[C@H](C)NC(=O)[C@H](CCSC)NC=O)[C@@H](C)CC)[C@@H](C)CC)[C@@H](C)O)[C@@H](C)CC)C(C)C)C(=O)N[C@H](C(=O)N[C@@H](CC(=O)O)C(=O)N[C@H](C(=O)N[C@H](C(=O)N[C@@H](CC(N)=O)C(=O)N[C@@H](CCCCN)C(=O)N[C@@H](Cc1ccccc1)C(=O)N[C@H](C(=O)N[C@@H](CCCCN)C(=O)N[C@@H](CCCCN)C(=O)O)[C@@H](C)O)C(C)C)[C@@H](C)O)[C@@H](C)CC` has a time constant of 2.2 s (carboxyfluorescein release, stopped-flow fluorescence; POPC vesicles 50 µM; up to 1 µM, pH 7.5, peptide/lipid 1:50).
Under cell death, `O=C(CSc1nc2c(=O)n3cc(-c4ccccc4)[nH]c3nc2n1[C@@H]1O[C@@H]2CO[P@@](=O)(S)O[C@H]2[C@H]1O)NCCOCCOCCOCCOCCOCCOCCOCCOCCNC(=O)CSc1nc2c(=O)n3cc(-c4ccccc4)[nH]c3nc2n1[C@@H]1O[C@@H]2CO[P@@](=O)(S)O[C@H]2[C@H]1O` is recorded as “toxic” (rd1 photoreceptor-like cells, mouse; dose not given).
Under “peak mean arterial pressure change”, `N=C(N)NCCC[C@H](NC(=O)[C@@H]1CCCN1C(=O)[C@@H]1CSSC[C@H](N)C(=O)N[C@@H](Cc2ccc(O)cc2)C(=O)N[C@@H](Cc2ccccc2)C(=O)N[C@@H](CCC(N)=O)C(=O)N[C@@H](CC(N)=O)C(=O)N1)C(=O)NCC(N)=O` is recorded as about 25 mmHg (male Sprague-Dawley rat, conscious; intra-arterial, 20 ng/kg; relative to: pre-injection baseline).
With `O=C(O)/C=C/c1cc(O)cc(O)c1` the inhibition was 73.2 ± 1.17% (DPPH radical scavenging; 500 µg/mL).
`CC[C@H](C)[C@H](NC(=O)[C@H](CCCNC(=N)N)NC(=O)[C@H](CCC(N)=O)NC(=O)[C@H](CC(=O)O)NC(=O)[C@H](CC(C)C)NC(=O)[C@H](CC(C)C)NC(=O)[C@H](CC(N)=O)NC(=O)[C@H](Cc1ccccc1)NC(=O)[C@H](CC(=O)O)NC(=O)[C@@H](NC(=O)[C@@H](NC(=O)[C@H](CC(N)=O)NC(=O)CNC(=O)[C@H](CO)NC(C)=O)C(C)C)[C@@H](C)CC)C(=O)N[C@H](C(=O)N[C@@H](Cc1c[nH]c2ccccc12)C(=O)N[C@@H](CCC(N)=O)C(=O)N[C@@H](CC(N)=O)C(=O)N[C@@H](Cc1c[nH]c2ccccc12)C(=O)N[C@@H](Cc1ccc(O)cc1)C(=O)N[C@@H](C)C(N)=O)[C@@H](C)CC` — result for “α4β7+ CCR9+ cells”: 30.8% (measured: HA-51 tetramer; antigen-experienced tetramer+ CD4 T cells, healthy adults, HLA-DRB1*0101; dose not given).
`Cc1cc2c(C(=O)Cc3ccccc3)c(O)c(O)cc2c(O)c1-c1c(C)cc2c(C(=O)Cc3ccccc3)c(O)c(O)cc2c1O` — result for “spleen weight reduction”: about 40% (B6 Bcl-2 transgenic mouse; i.p., 0.06 mmol/kg; relative to: control).
With `CSCC[C@H](NC(=O)CNC(=O)[C@H](CC(=O)O)NC(=O)[C@@H](NC(=O)[C@@H](NC(=O)[C@@H](NC(=O)CNC(=O)[C@H](CCC(N)=O)NC(=O)[C@H](CCSC)NC(=O)[C@H](CC(=O)O)NC(=O)[C@H](C)NC(=O)[C@H](C)NC(=O)[C@@H](NC(=O)[C@H](CO)NC(=O)[C@@H](N)CC(C)C)[C@@H](C)O)C(C)C)C(C)C)[C@@H](C)O)C(=O)N[C@@H](C)C(=O)N[C@@H](CO)C(=O)NCC(=O)N[C@@H](CC(C)C)C(=O)N[C@@H](CC(=O)O)C(=O)N[C@@H](CCCCN)C(=O)N[C@@H](CC(=O)O)C(=O)N[C@@H](Cc1ccc(O)cc1)C(=O)N[C@@H](CC(C)C)C(=O)N[C@@H](CCCCN)C(=O)N1CCC[C@H]1C(=O)N[C@@H](CC(=O)O)C(=O)N[C@@H](CC(=O)O)C(=O)O` the survival was 7 to 32 weeks (patients with stable disease, p53-positive solid tumours; dose not given, deceased patients).
The median survival of `Clc1ccc(NN=C(c2ccccc2)c2ccccn2)nc1` is reported as 33 days (BALB/c mouse, orthotopic 4T1 mammary tumour; oral gavage, dose not given).
Under “tumour growth inhibition”, `Cc1cc(Nc2nc(C[C@@]3(C(=O)O)CCN(Cc4cccc(Cl)c4F)[C@H](C)C3)cc(C)c2F)[nH]n1` is recorded as 79% (mice, NCI-H69 xenograft; oral, 5 mg/kg once daily).
For `CC(C)C[C@@H]1NC(=O)[C@H](C(C)C)NC(=O)[C@H](CO)NC(=O)CNC(=O)CNC(=O)[C@H](CCCNC(=N)N)NC(=O)[C@@H]2CCCN2C(=O)[C@@H](NC(=O)CC[C@H](NC(=O)c2ccc(N(C)Cc3cnc4nc(N)nc(N)c4n3)cc2)C(=O)O)C(C)(C)SSC[C@@H](C(=O)O)NC(=O)CNC(=O)[C@H]([C@@H](C)O)NC(=O)[C@H](C(C)C)NC1=O`, the paw weight was 2.27 ± 0.223 g (rat adjuvant arthritis; iv, 5 mg/kg once daily day 0-14, day 14).
